# Assay results pooled from the literature.
# A part holds a random share of what one study measured.
# Sequence of UniProt P00519 (whole entry, unmodified, looked up): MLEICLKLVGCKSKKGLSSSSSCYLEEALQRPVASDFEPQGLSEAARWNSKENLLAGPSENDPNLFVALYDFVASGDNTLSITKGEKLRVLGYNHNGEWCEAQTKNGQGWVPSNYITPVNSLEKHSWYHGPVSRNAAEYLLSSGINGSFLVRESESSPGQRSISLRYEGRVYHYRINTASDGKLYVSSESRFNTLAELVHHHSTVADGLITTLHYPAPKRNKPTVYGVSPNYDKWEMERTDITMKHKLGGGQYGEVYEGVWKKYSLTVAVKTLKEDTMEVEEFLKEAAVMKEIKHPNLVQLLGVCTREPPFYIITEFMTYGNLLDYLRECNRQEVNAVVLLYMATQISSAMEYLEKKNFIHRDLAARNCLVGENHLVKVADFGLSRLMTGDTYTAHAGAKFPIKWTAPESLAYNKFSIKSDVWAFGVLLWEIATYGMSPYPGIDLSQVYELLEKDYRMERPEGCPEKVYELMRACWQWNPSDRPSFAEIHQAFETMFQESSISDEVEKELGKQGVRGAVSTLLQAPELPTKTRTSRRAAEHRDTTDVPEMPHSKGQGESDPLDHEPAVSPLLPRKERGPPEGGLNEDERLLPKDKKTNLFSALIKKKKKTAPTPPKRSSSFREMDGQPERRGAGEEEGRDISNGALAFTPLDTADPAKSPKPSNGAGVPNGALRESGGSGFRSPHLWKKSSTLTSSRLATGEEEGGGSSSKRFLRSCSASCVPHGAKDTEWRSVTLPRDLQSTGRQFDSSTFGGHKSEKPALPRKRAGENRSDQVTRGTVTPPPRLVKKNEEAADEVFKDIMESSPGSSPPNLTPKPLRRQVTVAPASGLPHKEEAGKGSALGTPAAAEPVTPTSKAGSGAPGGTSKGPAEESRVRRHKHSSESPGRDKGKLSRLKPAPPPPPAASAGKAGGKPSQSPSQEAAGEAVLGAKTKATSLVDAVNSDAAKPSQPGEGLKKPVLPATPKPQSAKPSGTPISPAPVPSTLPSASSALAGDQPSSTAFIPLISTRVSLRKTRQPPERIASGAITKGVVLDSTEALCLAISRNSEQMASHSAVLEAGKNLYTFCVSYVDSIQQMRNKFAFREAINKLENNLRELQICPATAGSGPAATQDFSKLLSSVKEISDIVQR
# Sequence of UniProt Q15835 (whole entry, looked up): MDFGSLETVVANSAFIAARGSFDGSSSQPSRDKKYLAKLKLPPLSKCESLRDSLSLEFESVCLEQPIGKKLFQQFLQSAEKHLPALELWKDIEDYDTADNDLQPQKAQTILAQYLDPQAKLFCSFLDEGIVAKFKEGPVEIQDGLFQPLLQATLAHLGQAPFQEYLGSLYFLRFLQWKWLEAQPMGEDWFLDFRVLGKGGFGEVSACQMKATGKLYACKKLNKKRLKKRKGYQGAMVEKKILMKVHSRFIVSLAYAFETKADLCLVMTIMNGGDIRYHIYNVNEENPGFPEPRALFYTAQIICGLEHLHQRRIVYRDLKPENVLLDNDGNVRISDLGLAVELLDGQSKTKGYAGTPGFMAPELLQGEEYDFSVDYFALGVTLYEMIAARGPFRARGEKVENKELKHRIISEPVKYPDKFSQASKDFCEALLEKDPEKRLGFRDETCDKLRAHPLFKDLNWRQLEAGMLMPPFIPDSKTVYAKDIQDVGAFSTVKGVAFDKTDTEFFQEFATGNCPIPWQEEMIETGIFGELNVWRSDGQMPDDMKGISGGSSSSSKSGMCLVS
# Sequence of UniProt P16234 (whole entry, looked up): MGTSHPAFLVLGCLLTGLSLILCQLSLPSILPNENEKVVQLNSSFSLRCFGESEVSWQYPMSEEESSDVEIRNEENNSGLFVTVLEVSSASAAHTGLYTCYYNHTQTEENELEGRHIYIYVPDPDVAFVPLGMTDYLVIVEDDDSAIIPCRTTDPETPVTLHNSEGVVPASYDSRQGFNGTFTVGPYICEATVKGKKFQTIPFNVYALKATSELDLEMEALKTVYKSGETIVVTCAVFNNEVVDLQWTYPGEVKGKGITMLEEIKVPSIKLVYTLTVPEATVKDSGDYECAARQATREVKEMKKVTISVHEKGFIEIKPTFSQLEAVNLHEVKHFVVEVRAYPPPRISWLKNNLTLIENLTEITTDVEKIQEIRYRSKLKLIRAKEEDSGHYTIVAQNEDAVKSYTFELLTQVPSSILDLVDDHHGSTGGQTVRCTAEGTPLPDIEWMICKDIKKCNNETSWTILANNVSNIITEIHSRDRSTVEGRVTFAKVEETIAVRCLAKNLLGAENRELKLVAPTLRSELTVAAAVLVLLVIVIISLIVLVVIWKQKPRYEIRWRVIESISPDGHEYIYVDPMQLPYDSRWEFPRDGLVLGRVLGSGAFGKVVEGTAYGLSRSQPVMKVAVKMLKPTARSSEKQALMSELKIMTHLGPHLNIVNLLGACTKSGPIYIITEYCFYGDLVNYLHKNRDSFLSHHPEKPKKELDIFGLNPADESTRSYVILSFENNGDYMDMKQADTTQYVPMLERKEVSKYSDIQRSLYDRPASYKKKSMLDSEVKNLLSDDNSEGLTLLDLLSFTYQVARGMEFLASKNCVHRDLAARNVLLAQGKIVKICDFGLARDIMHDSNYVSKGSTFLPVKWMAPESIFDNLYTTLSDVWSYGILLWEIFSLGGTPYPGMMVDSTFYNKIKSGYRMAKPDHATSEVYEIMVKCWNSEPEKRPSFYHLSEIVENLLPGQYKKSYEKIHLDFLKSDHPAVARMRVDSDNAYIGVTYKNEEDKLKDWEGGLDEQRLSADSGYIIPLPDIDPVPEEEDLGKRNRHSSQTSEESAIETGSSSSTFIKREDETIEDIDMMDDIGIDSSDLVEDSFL
# Sequence of UniProt P22607 (whole entry, looked up): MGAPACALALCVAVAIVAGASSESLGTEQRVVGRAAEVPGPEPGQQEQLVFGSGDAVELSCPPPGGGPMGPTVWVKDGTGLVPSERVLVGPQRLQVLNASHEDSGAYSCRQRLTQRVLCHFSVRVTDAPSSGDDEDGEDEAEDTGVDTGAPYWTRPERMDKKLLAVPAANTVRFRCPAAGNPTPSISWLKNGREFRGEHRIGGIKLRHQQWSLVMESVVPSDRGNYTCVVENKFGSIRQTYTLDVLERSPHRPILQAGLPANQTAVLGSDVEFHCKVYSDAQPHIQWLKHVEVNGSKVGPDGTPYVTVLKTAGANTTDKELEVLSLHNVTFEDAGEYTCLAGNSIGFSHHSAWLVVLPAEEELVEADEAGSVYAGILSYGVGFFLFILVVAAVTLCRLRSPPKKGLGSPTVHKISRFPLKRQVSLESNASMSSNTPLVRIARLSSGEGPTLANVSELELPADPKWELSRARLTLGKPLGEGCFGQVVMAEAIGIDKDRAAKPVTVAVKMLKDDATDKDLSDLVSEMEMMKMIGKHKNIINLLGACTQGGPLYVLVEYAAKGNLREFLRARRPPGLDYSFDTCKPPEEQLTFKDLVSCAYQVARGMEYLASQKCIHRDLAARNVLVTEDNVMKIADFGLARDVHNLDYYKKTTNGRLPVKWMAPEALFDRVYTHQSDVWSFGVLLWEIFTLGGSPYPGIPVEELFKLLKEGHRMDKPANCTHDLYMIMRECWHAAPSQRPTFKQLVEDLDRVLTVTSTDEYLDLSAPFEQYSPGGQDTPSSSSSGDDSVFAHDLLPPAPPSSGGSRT

# Block 1
# Target: RAC-alpha serine/threonine-protein kinase (AKT1, Homo sapiens, UniProt P31749)
# Sequence of UniProt P31749 (whole entry, looked up): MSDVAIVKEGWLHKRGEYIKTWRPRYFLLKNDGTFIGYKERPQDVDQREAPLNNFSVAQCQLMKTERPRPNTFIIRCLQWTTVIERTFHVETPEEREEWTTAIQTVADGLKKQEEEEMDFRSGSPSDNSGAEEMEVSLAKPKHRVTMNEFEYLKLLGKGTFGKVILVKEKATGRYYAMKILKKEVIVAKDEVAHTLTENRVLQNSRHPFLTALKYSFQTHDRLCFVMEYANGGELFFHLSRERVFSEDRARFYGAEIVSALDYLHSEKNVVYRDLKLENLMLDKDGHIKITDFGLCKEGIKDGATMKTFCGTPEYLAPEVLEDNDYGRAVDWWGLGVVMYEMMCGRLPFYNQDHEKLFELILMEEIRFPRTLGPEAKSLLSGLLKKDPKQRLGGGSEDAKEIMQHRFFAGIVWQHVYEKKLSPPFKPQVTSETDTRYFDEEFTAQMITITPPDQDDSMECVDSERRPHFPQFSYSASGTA
# Effect on: enzyme activity
# Mode: inhibitor
# Concentration: 0.5 µM
# Baseline: control
Compound,remaining activity [%]
N#CC(c1ccnc(NCCc2cccnc2)n1)c1nc2ccccc2s1 (centres unmarked),104
CNc1cc2c(Nc3cccc(Br)c3)ncnc2cn1,98.8
Nc1nc(Nc2ccc(S(N)(=O)=O)cc2)nn1C(=S)Nc1c(F)cccc1F,103
C[C@@H](N)[C@H]1CC[C@H](C(=O)Nc2ccncc2)CC1,86.2
O=C(c1ccccc1)c1ccc(N2CCOCC2)cc1O,102
O=Nc1c(-c2c(O)[nH]c3ccccc23)[nH]c2ccccc12,97.8
NC(=O)c1ccc(-c2nc(-c3ccc4c(c3)OCCO4)c(-c3ccccn3)[nH]2)cc1,103
O=C1c2ccccc2-c2nc3nnnn3nc21,79.7
O=C1NC(=O)/C(=C/c2ccc3c(c2)OC(F)(F)O3)S1,98.2
CC(C)n1cnc2c(Nc3cccc(Cl)c3)nc(NCCO)nc21,103
FC(F)(F)c1ccc(/C=C/c2nc(COc3ccc(CCCCn4ccnn4)cc3)co2)cc1,93.2
c1cc(-c2cnn3cc(-c4ccc(OCCN5CCCCC5)cc4)cnc23)ccn1,104
N#C/C(=C(/N)SC1C=CC=CC1)c1cccc(C(O)c2ccncc2)c1 (centres unmarked),104
COc1cc2c(N3CCN(C(=O)Nc4ccc(OC(C)C)cc4)CC3)ncnc2cc1OCCCN1CCCCC1,102
O=c1c(-c2ccc(F)cc2)c(-c2ccncc2)[nH]n1-c1ccc(Cl)cc1,96.4
O=C(O)/C=C/c1cc(Br)c(Br)c(Br)c1Br,97.4
CC(C)(C)c1nc2c3cc[nH]c(=O)c3c3cc(F)ccc3c2[nH]1,86.8
COc1cc2c(Nc3ccc(Br)cc3F)ncnc2cc1OCC1CCN(C)CC1,94.7
CCN(CC)CCCCN1c2ccccc2Oc2ccc(Cl)cc21,112
Clc1ccc(Nc2nnc(Cc3ccncc3)c3ccccc23)cc1,103
CC(C)N(CCC(=O)c1ccc2ccccc2c1)Cc1ccccc1,100

# Block 2
# Target: CRBN/Zinc finger protein Helios (Homo sapiens, UniProt Q96SW2+Q9UKS7)
# Sequence of UniProt Q9UKS7 (whole entry, looked up): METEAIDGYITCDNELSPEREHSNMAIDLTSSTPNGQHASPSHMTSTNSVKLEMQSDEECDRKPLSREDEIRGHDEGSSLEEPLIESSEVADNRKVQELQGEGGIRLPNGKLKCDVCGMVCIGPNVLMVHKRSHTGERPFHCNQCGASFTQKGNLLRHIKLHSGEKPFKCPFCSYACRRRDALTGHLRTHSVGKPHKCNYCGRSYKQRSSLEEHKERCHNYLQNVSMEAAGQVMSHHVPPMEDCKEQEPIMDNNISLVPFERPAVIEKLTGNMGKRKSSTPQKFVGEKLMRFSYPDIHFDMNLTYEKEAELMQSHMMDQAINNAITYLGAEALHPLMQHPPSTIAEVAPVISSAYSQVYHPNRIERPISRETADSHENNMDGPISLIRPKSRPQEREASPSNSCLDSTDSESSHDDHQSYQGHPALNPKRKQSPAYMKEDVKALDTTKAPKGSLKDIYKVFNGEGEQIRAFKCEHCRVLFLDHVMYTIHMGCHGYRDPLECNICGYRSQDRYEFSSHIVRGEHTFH
# Sequence of UniProt Q96SW2 (whole entry, looked up): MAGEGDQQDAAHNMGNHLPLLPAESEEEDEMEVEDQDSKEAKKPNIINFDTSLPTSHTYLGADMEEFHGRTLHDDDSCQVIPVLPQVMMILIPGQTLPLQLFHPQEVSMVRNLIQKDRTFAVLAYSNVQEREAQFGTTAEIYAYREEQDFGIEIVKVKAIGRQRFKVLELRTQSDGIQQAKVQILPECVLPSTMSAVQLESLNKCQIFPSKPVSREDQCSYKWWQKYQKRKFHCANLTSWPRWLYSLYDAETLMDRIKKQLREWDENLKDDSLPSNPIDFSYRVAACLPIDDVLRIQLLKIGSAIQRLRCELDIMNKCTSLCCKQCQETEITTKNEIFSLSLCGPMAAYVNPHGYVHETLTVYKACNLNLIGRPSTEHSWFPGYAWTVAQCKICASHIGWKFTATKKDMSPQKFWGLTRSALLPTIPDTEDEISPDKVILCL
# Mode: degrader
# Method: HiBiT
# Cells: HEK293
# Concentration: 1.524 nM
SMILES,protein remaining [%]
O=C1CCC(N2Cc3c(ccc4c3OCC43CCC(Cc4ccccc4)CC3)C2=O)C(=O)N1 (centres unmarked),101
O=C1CCC(N2Cc3c(ccc4c3OCCC43CCN(Cc4ccccc4)CC3)C2=O)C(=O)N1 (centres unmarked),97.4
O=C1CCC(N2Cc3c(ccc4c3OCC43CCC(Oc4ccccc4)CC3)C2=O)C(=O)N1 (centres unmarked),98.2

# Block 3
# Structure (SMILES): NCc1ccc(Nc2ncc(F)c(Nc3ccccc3)n2)cc1
target,effect on,method,organism,matrix,IC50 [µM]
"EPHA4 (Homo sapiens, UniProt P54764)",,,,,> 10
"ABL1 (Homo sapiens, UniProt P00519)",,,,,> 10
Trypanosoma brucei protein Tb427tmp.211.1690,binding,kinobead competition,,Trypanosoma brucei lysate,> 10
"SRC (Homo sapiens, UniProt P12931)",,,,,> 10
Trypanosoma brucei CAMKK Tb427tmp.02.4860,binding,kinobead competition,,Trypanosoma brucei lysate,> 10
"GSK3A (Homo sapiens, UniProt P49840)",,kinobead competition,,MRC5 cell lysate,> 10
Trypanosoma brucei kinase Tb427tmp.160.1200,binding,kinobead competition,,Trypanosoma brucei lysate,> 10
protein Tb427tmp.211.1150,,kinobead TMT proteomics,Trypanosoma brucei,cell lysate,> 10
Trypanosoma brucei NEK Tb427tmp.02.4530,binding,kinobead competition,,Trypanosoma brucei lysate,> 10
Trypanosoma brucei kinase Tb427tmp.01.0930,binding,kinobead competition,,Trypanosoma brucei lysate,> 10
Trypanosoma brucei kinase GI 71749328,binding,kinobead competition,,Trypanosoma brucei lysate,> 10
"Alpha-actinin-1 (Homo sapiens, UniProt P12814)",,,,,> 10
"Eukaryotic translation initiation factor 3 subunit J (Homo sapiens, UniProt O75822)",,,,,> 10
"PIP4K2B (Homo sapiens, UniProt P78356)",,,,,> 10
"CSNK2A1 (Homo sapiens, UniProt P68400)",,,,,> 10
Trypanosoma brucei kinase Tb427tmp.01.3110,binding,kinobead competition,,Trypanosoma brucei lysate,> 10

# Block 4
# Compound: O=S(=O)(NC1CCC(c2cc(F)ccc2F)(S(=O)(=O)c2ccc(Cl)cc2)CC1)C(F)(F)F (centres unmarked)
# Concentration: 1 µM
target,effect on,method,remaining binding
"MYLK3 (Homo sapiens, UniProt Q32MK0)",cell-free assay,competition with immobilised ligand,86%
"CDKL2 (Homo sapiens, UniProt Q92772)",cell-free assay,competition with immobilised ligand,100%
"Insulin receptor (INSR, Homo sapiens, UniProt P06213)",cell-free assay,competition with immobilised ligand,95%
"Tyrosine-protein kinase ABL1, non-phosphorylated (ABL1, Homo sapiens, UniProt P00519, F317I)",binding,competition with immobilised ligand,84%
"ACVRL1 (Homo sapiens, UniProt P37023)",binding,competition with immobilised ligand,100%
"MAK (Homo sapiens, UniProt P20794)",cell-free assay,competition with immobilised ligand,100%
"PDGFRA (Homo sapiens, UniProt P16234)",cell-free assay,competition with immobilised ligand,100%
"FGFR3 (Homo sapiens, UniProt P22607)",cell-free assay,competition with immobilised ligand,90%
"PIK3CA (Homo sapiens, UniProt P42336, C420R)",binding,competition with immobilised ligand,36%
"PRKCI (Homo sapiens, UniProt P41743)",cell-free assay,competition with immobilised ligand,100%
"MUSK (Homo sapiens, UniProt O15146)",cell-free assay,competition with immobilised ligand,100%
"IKBKE (Homo sapiens, UniProt Q14164)",binding,competition with immobilised ligand,0%
"PIP5K1C (Homo sapiens, UniProt O60331)",cell-free assay,competition with immobilised ligand,87%
"GRK1 (Homo sapiens, UniProt Q15835)",cell-free assay,competition with immobilised ligand,84%
"CDC42BPG (Homo sapiens, UniProt Q6DT37)",,competition binding,100%
"TRPM6 (Homo sapiens, UniProt Q9BX84)",cell-free assay,competition with immobilised ligand,95%
"CDKL3 (Homo sapiens, UniProt Q8IVW4)",cell-free assay,competition with immobilised ligand,100%
"FLT3 (Homo sapiens, UniProt P36888, F691L/ITD)",cell-free assay,competition with immobilised ligand,100%
"TESK1 (Homo sapiens, UniProt Q15569)",cell-free assay,competition with immobilised ligand,100%
"DCLK1 (Homo sapiens, UniProt O15075)",cell-free assay,competition with immobilised ligand,100%
"IKBKB (Homo sapiens, UniProt O14920)",cell-free assay,competition with immobilised ligand,93%
"SLK (Homo sapiens, UniProt Q9H2G2)",cell-free assay,competition with immobilised ligand,100%
"BRSK2 (Homo sapiens, UniProt Q8IWQ3)",cell-free assay,competition with immobilised ligand,100%
"PLK4 (Homo sapiens, UniProt O00444)",cell-free assay,competition with immobilised ligand,100%
"MAPK8 (Homo sapiens, UniProt P45983)",cell-free assay,competition with immobilised ligand,78%

# Excerpt of the above (block 1):
Compound,remaining activity [%]
COc1cc2c(N3CCN(C(=O)Nc4ccc(OC(C)C)cc4)CC3)ncnc2cc1OCCCN1CCCCC1,102
O=c1c(-c2ccc(F)cc2)c(-c2ccncc2)[nH]n1-c1ccc(Cl)cc1,96.4
O=C(O)/C=C/c1cc(Br)c(Br)c(Br)c1Br,97.4
CC(C)(C)c1nc2c3cc[nH]c(=O)c3c3cc(F)ccc3c2[nH]1,86.8
